{"data": "Assay results gathered from unrelated publications", "cell line": "LOX IMVI", "note": "Protocols differ between the studies behind these lines."}
{"SMILES": "COc1cc(CNC(=O)C[C@H](C)CCC=C(C)C)ccc1OCc1cn(-c2cccc(C(F)(F)F)c2)nn1", "test": "SRB", "conditions": "10 µM, 48 h", "endpoint": "growth", "value": "80.7%"}
{"SMILES": "C1=[N+]2CCCC[N+]3=Cc4ccc5[n]4[Au-]23[n]2c1ccc2-c1nc2ccccc2nc1-5.F[P-](F)(F)(F)(F)F", "test": "cell growth", "endpoint": "IC50", "value": "1.7 µM"}
{"SMILES": "COc1ccc(C2=Nn3c(NN=C4C(=O)N(Cc5ccccc5)c5ccc(Cl)cc54)nnc3SC2)cc1", "test": "cell growth or viability, SRB", "conditions": "10 µM", "endpoint": "inhibition", "value": "37%"}
{"SMILES": "CC/C=C\\C/C=C\\C/C=C\\C/C=C\\C/C=C\\C/C=C\\CCC(=O)Nc1ccn(C2OC(CO)C(O)C2(F)F)c(=O)n1 (stereo not shown)", "test": "NCI60 screen", "endpoint": "TGI", "value": "1.07 µM"}
{"SMILES": "CCC(=C(c1ccc(Cl)cc1)c1ccc(OCCCN(C)C)cc1)c1ccc(OC)cc1", "test": "cell growth or viability, SRB", "endpoint": "GI50", "value": "0.87 µM"}
{"SMILES": "CC(=O)OC[C@H]1O[C@@H](Sc2sc(C(=O)c3ccc(Br)cc3)c(N)c2-c2nc3ccccc3s2)[C@H](OC(C)=O)[C@@H](OC(C)=O)[C@@H]1OC(C)=O", "test": "SRB", "conditions": "10 µM, 48 h", "endpoint": "growth", "value": "37.1%"}
{"SMILES": "COc1cc(CNC(=O)C[C@H](C)CCC=C(C)C)ccc1OCc1cn(-c2ccccc2)nn1", "test": "SRB", "conditions": "10 µM, 48 h", "endpoint": "growth", "value": "92.3%"}
{"SMILES": "CC(=O)OC[C@H]1O[C@@H](Sc2sc(C(=O)c3ccc(C)cc3)c(N)c2-c2nc3ccccc3s2)[C@H](OC(C)=O)[C@@H](OC(C)=O)[C@@H]1OC(C)=O", "test": "SRB", "conditions": "10 µM, 48 h", "endpoint": "growth", "value": "54.5%"}
{"SMILES": "COc1cc(CNC(=O)C[C@H](C)CCC=C(C)C)ccc1OCc1cn(-c2ccc(Cl)c(Cl)c2)nn1", "test": "SRB", "conditions": "10 µM, 48 h", "endpoint": "growth", "value": "50.6%"}
{"SMILES": "CC(Cc1ccc(Cl)cc1)=C(c1ccc(Cl)cc1)c1ccc(OCCN(C)C)cc1", "test": "cell growth or viability, SRB", "endpoint": "GI50", "value": "3.02 µM"}
{"note": "Excerpt of the above:"}
{"SMILES": "CC(Cc1ccc(Cl)cc1)=C(c1ccc(Cl)cc1)c1ccc(OCCN(C)C)cc1", "test": "cell growth or viability, SRB", "endpoint": "GI50", "value": "3.02 µM"}
